Experimental data gathered from unrelated publications.
Several values in a cell are separate wells, animals, samples, runs or records.
Partner: itself
B1: cfbA 1-143 S11T (Methanocaldococcus jannaschii, UniProt Q58380); chain MEALVLVGHGTRLPYSKELLVKLAEKVKERNLFPIVEIGLMEFSEPTIPQAVKKAIEQGAKRIIVVPVFLAHGIHTTRDIPRLLGLIEDNHEHHHEHSHHHHHHHHHEHEKLEIPEDVEIIYREPIGADDRIVDIIIDRAFGR
B2: ADSL R303C (Homo sapiens, UniProt P30566); sequence looked up; chain MAAGGDHGSPDSYRSPLASRYASPEMCFVFSDRYKFRTWRQLWLWLAEAEQTLGLPITDEQIQEMKSNLENIDFKMAAEEEKRLRHDVMAHVHTFGHCCPKAAGIIHLGATSCYVGDNTDLIILRNALDLLLPKLARVISRLADFAKERASLPTLGFTHFQPAQLTTVGKRCCLWIQDLCMDLQNLKRVRDDLRFRGVKGTTGTQASFLQLFEGDDHKVEQLDKMVTEKAGFKRAFIITGQTYTRKVDIEVLSVLASLGASVHKICTDIRLLANLKEMEEPFEKQQIGSSAMPYKRNPMRSECCCSLARHLMTLVMDPLQTASVQWFERTLDDSANRRICLAEAFLTADTILNTLQNISEGLVVYPKVIERRIRQELPFMATENIIMAMVKAGGSRQDCHEKIRVLSQQAASVVKQEGGDNDLIERIQVDAYFSPIHSQLDHLLDPSSFTGRASQQVQRFLEEEVYPLLKPYESVMKVKAELCL
B3: sodN mature (Streptomyces seoulensis, UniProt P80734); sequence looked up; chain HCDLPCGVYDPAQARIEAESVKAIQEKMAANDDLHFQIRATVIKEQRAELAKHHLDVLWSDYFKPPHFESYPELHTLVNEAVKALSAAKASTDPATGQKALDYIAQIDKIFWETKKA
B4: sso0001 1-202 (Sulfolobus solfataricus, UniProt Q97TX9); chain MITEFLLKKKLEEHLSHVKEENTIYVTDLVRCPRRVRYESEYKELAISQVYAPSAILGDILHLGLESVLKGNFNAETEVETLREINVGGKVYKIKGRADAIIRNDNGKSIVIEIKTSRSDKGLPLIHHKMQLQIYLWLFSAEKGILVYITPDRIAEYEINEPLDEATIVRLAEDTIMLQNSPRFNWECKYCIFSVICPAKLT
B5: spo0J K252A (Bacillus subtilis, UniProt P26497); chain MAKGLGKGINALFNQVDLSEETVEEIKIADLRPNPYQPRKHFDDEALAELKESVLQHGILQPLIVRKSLKGYDIVAGERRFRAAKLAGLDTVPAIVRELSEALMREIALLENLQREDLSPLEEAQAYDSLLKHLDLTQEQLAKRLGKSRPHIANHLRLLTLPENIQQLIAEGTLSMGHGRTLLGLKNKNKLEPLVQKVIAEQLNVRQLEQLIQQLNQNVPRETKKKEPVKDAVLKERESYLQNYFGTTVNIARQKKKGKIEIEFFSNEDLDRILELLSERES
B6: Lag3 24-426 (Mus musculus, UniProt Q61790); sequence looked up; chain GPGKELPVVWAQEGAPVHLPCSLKSPNLDPNFLRRGGVIWQHQPDSGQPTPIPALDLHQGMPSPRQPAPGRYTVLSVAPGGLRSGRQPLHPHVQLEERGLQRGDFSLWLRPALRTDAGEYHATVRLPNRALSCSLRLRVGQASMIASPSGVLKLSDWVLLNCSFSRPDRPVSVHWFQGQNRVPVYNSPRHFLAETFLLLPQVSPLDSGTWGCVLTYRDGFNVSITYNLKVLGLEPVAPLTVYAAEGSRVELPCHLPPGVGTPSLLIAKWTPPGGGPELPVAGKSGNFTLHLEAVGLAQAGTYTCSIHLQGQQLNATVTLAVITVTPKSFGLPGSRGKLLCEVTPASGKERFVWRPLNNLSRSCPGPVLEIQEARLLAERWQCQLYEGQRLLGATVYAAESSSG
B7: ansA (Wolinella succinogenes, UniProt P50286); sequence looked up; chain MAKPQVTILATGGTIAGSGESSVKSSYSAGAVTVDKLLAAVPAINDLATIKGEQISSIGSQEMTGKVWLKLAKRVNELLAQKETEAVIITHGTDTMEETAFFLNLTVKSQKPVVLVGAMRSGSSMSADGPMNLYNAVNVAINKASTNKGVVIVMNDEIHAAREATKLNTTAVNAFASPNTGKIGTVYYGKVEYFTQSVRPHTLASEFDISKIEELPRVDILYAHPDDTDVLVNAALQAGAKGIIHAGMGNGNPFPLTQNALEKAAKSGVVVARSSRVGSGSTTQEAEVDDKKLGFVATESLNPQKARVLLMLALTKTSDREAIQKIFSTY
B8: ADAR1 127-end 127-1226 A870T (human, UniProt P55265); sequence looked up; chain SSHFQELSIYQDQEQRILKFLEELGEGKATTAHDLSGKLGTPKKEINRVLYSLAKKGKLQKEAGTPPLWKIAVSTQAWNQHSGVVRPDGHSQGAPNSDPSLEPEDRNSTSVSEDLLEPFIAVSAQAWNQHSGVVRPDSHSQGSPNSDPGLEPEDSNSTSALEDPLEFLDMAEIKEKICDYLFNVSDSSALNLAKNIGLTKARDINAVLIDMERQGDVYRQGTTPPIWHLTDKKRERMQIKRNTNSVPETAPAAIPETKRNAEFLTCNIPTSNASNNMVTTEKVENGQEPVIKLENRQEARPEPARLKPPVHYNGPSKAGYVDFENGQWATDDIPDDLNSIRAAPGEFRAIMEMPSFYSHGLPRCSPYKKLTECQLKNPISGLLEYAQFASQTCEFNMIEQSGPPHEPRFKFQVVINGREFPPAEAGSKKVAKQDAAMKAMTILLEEAKAKDSGKSEESSHYSTEKESEKTAESQTPTPSATSFFSGKSPVTTLLECMHKLGNSCEFRLLSKEGPAHEPKFQYCVAVGAQTFPSVSAPSKKVAKQMAAEEAMKALHGEATNSMASDNQPEGMISESLDNLESMMPNKVRKIGELVRYLNTNPVGGLLEYARSHGFAAEFKLVDQSGPPHEPKFVYQAKVGGRWFPAVCAHSKKQGKQEAADAALRVLIGENEKAERMGFTEVTPVTGASLRRTMLLLSRSPEAQPKTLPLTGSTFHDQIAMLSHRCFNTLTNSFQPSLLGRKILTAIIMKKDSEDMGVVVSLGTGNRCVKGDSLSLKGETVNDCHAEIISRRGFIRFLYSELMKYNSQTAKDSIFEPAKGGEKLQIKKTVSFHLYISTAPCGDGALFDKSCSDRAMESTESRHYPVFENPKQGKLRTKVENGEGTIPVESSDIVPTWDGIRLGERLRTMSCSDKILRWNVLGLQGALLTHFLQPIYLKSVTLGYLFSQGHLTRAICCRVTRDGSAFEDGLRHPFIVNHPKVGRVSIYDSKRQSGKTKETSVNWCLADGYDLEILDGTRGTVDGPRNELSRVSKKNIFLLFKKLCSFRYRRDLLRLSYGEAKKAARDYETAKNYFKKGLKDMGYGNWISKPQEEKNFYLCPV
B9: xseA H238A (Escherichia coli, UniProt P04994); sequence looked up; chain MLPSQSPAIFTVSRLNQTVRLLLEHEMGQVWISGEISNFTQPASGHWYFTLKDDTAQVRCAMFRNSNRRVTFRPQHGQQVLVRANITLYEPRGDYQIIVESMQPAGEGLLQQKYEQLKAKLQAEGLFDQQYKKPLPSPAHCVGVITSKTGAALHDILHVLKRRDPSLPVIIYPAAVQGDDAPGQIVRAIELANQRNECDVLIVGRGGGSLEDLWSFNDERVARAIFTSRIPVVSAVGAETDVTIADFVADLRAPTPSAAAEVVSRNQQELLRQVQSTRQRLEMAMDYYLANRTRRFTQIHHRLQQQHPQLRLARQQTMLERLQKRMSFALENQLKRTGQQQQRLTQRLNQQNPQPKIHRAQTRIQQLEYRLAETLRAQLSATRERFGNAVTHLEAVSPLSTLARGYSVTTATDGNVLKKVKQVKAGEMLTTRLEDGWIESEVKNIQPVKKSRKKVH
B10: rga7 33-307 (Schizosaccharomyces pombe, UniProt O94466); sequence looked up; chain PKVEAILNSELGLAILNDRIKDYLLTCKELAGFFKKRSILEEESGKNLQKLAKSYLETFQSKHHSPQSFSASVITSMEIHEQLANHSLTLQKTLSAFSDQVIEFHKNAERKRKSIKEYAKKQENAYLEAVMQMDKSKSRFKGAETEYNRALDNKNTGDSQKKVGFFKPKSNAQLTKLEDEARLKAENAESDMHSKIENAQNVQKQLLCIHRPNYIKQFFSLQREIESSLIANYLRYTKLCESNTLLNGLTIRPQKPTPTNCGLQHALDNINANTD
B11: NAC92 12-170 H141A (Arabidopsis thaliana, UniProt Q9FKA0); sequence looked up; chain VEDEEHIDLPPGFRFHPTDEELITHYLKPKVFNTFFSATAIGEVDLNKIEPWDLPWKAKMGEKEWYFFCVRDRKYPTGLRTNRATEAGYWKATGKDKEIFKGKSLVGMKKTLVFYKGRAPKGVKTNWVMAEYRLEGKYCIENLPQTAKNEWVICRVFQK
B12: comFB 1-98 (Bacillus subtilis, UniProt P39146); chain MLVNSKEIVMKELLDRYMDQLHMACTCQVCQNDVLALSLNKVSPSYVTDFKKIAYTKAELVDKQKNTAMLVILAESAAVVSESPSDLCQTKQEEAFIN
B13: GGPS1 R235C (Homo sapiens, UniProt O95749); sequence looked up; chain MEKTQETVQRILLEPYKYLLQLPGKQVRTKLSQAFNHWLKVPEDKLQIIIEVTEMLHNASLLIDDIEDNSKLRRGFPVAHSIYGIPSVINSANYVYFLGLEKVLTLDHPDAVKLFTRQLLELHQGQGLDIYWRDNYTCPTEEEYKAMVLQKTGGLFGLAVGLMQLFSDYKEDLKPLLNTLGLFFQIRDDYANLHSKEYSENKSFCEDLTEGKFSFPTIHAIWSRPESTQVQNILCQRTENIDIKKYCVHYLEDVGSFEYTRNTLKELEAKAYKQIDARGGNPELVALVKHLSKMFKEENE
B14: emrE (Escherichia coli, UniProt P23895); sequence looked up; chain MNPYIYLGGAILAEVIGTTLMKFSEGFTRLWPSVGTIICYCASFWLLAQTLAYIPTGIAYAIWSGVGIVLISLLSWGFFGQRLDLPAIIGMMLICAGVLIINLLSRSTPH
B15: HSP90-7 29-823 (Arabidopsis thaliana, UniProt Q9STX5); sequence looked up; chain NAEESSDDVTDPPKVEEKIGGHGGLSTDSDVVHRESESMSKKTLRSNAEKFEFQAEVSRLMDIIINSLYSNKDIFLRELISNASDALDKIRFLALTDKDVLGEGDTAKLEIQIKLDKAKKILSIRDRGIGMTKEDLIKNLGTIAKSGTSAFVEKMQSSGDLNLIGQFGVGFYSAYLVADYIEVISKHNDDSQYVWESKANGKFAVSEDTWNEPLGRGTEIRLHLRDEAGEYLEESKLKELVKRYSEFINFPISLWASKEVETEVPVEEDESADEETETTSTEEEKEEDAEEEDGEKKQKTKKVKETVYEWELLNDVKAIWLRSPKEVTEEEYTKFYHSLSKDFTDEKPMAWSHFNAEGDVEFKAVLYVPPKAPHDLYESYYNSNKANLKLYVRRVFISDEFDELLPKYLSFLKGLVDSDTLPLNVSREMLQQHSSLKTIKKKLIRKALDMIRKLAEEDPDEIHDDEKKDVEKSGENDEKKGQYTKFWNEFGKSVKLGIIEDAANRNRLAKLLRFETTKSDGKLTSLDQYIKRMKKSQKDIFYITGSSKEQLEKSPFLERLIKKGYEVIFFTDPVDEYLMQYLMDYEDKKFQNVSKEGLKVGKDSKDKELKEAFKELTKWWKGNLASENVDDVKISNRLADTPCVVVTSKFGWSANMERIMQSQTLSDANKQAYMRGKRVLEINPRHPIIKELKDRIASDPEDESVKETAQLMYQTALIESGFILTDPKDFAARIYNSVKSGLNISPDAVADEEIEAAEEPETSEATETKSDDLAGGLNIEAEPVEQQEENTKDEL
Chain of UniProt Q9CZW5 (whole entry, looked up): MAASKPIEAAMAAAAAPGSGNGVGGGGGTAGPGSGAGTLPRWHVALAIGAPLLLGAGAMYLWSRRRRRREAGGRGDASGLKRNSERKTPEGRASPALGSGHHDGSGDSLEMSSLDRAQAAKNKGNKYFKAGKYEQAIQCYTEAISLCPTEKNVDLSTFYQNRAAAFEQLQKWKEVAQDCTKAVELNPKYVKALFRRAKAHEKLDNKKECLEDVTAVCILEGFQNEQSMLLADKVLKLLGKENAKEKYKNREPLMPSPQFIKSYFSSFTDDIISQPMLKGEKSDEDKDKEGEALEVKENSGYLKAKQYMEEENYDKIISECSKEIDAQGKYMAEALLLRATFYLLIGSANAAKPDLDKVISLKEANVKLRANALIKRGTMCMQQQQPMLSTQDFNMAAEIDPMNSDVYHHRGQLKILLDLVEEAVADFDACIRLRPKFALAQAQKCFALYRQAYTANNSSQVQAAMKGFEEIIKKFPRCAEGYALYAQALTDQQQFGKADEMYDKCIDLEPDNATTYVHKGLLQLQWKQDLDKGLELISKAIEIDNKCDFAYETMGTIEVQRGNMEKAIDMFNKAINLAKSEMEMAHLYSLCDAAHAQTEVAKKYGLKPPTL

Molecule = B1 (cfbA 1-143 S11T); method = SEC; subunits per oligomer = 2
Molecule = B2 (ADSL R303C); method = SEC-MALS; notes = tetramer, His-tagged; subunits per oligomer = 4
Molecule = Tomm70 (Mus musculus, UniProt Q9CZW5); method = native PAGE; subunits per oligomer = 2
Molecule = B3 (sodN mature); method = ESI-MS; notes = denaturing conditions; subunits per oligomer = 6
Molecule = B4 (sso0001 1-202); method = AUC; subunits per oligomer = 9.5 protomers
Molecule = B5 (spo0J K252A); method = SEC-MALS; subunits per oligomer = 2
Molecule = B6 (Lag3 24-426); method = AUC; subunits per oligomer = 2
Molecule = TMEM94 (Homo sapiens, UniProt Q12767-3); method = cross-linking; cell line = HEK293; notes = in cells, not purified; subunits per oligomer = 3
Molecule = B7 (ansA); method = SEC-MALS; subunits per oligomer = 4
Molecule = B8 (ADAR1 127-end 127-1226 A870T); method = SEC; subunits per oligomer = 2
Molecule = B9 (xseA H238A); method = cryo-EM; subunits per oligomer = 4
Molecule = B10 (rga7 33-307); method = cross-linking; subunits per oligomer = 2 and 3 and 4
Molecule = B11 (NAC92 12-170 H141A); method = SEC; pH = pH 7.5; subunits per oligomer = 2
Molecule = B12 (comFB 1-98); method = mass photometry; notes = without c-di-GMP; subunits per oligomer = 4
Molecule = B13 (GGPS1 R235C); method = native MS; subunits per oligomer = 2
Molecule = B14 (emrE); method = AUC; subunits per oligomer = 2
Molecule = B15 (HSP90-7 29-823); method = SEC; subunits per oligomer = 2

Repeated from above:
Molecule = B8 (ADAR1 127-end 127-1226 A870T); method = SEC; subunits per oligomer = 2
Molecule = B7 (ansA); method = SEC-MALS; subunits per oligomer = 4
